Measurements collected from several papers.
Protocols differ between the studies behind these lines. ± marks the error that the study gave.

SMILES | test | system | conditions | scale | quantity | result
O=C(N[C@@H](Cc1coc2ccccc12)B(O)O)[C@@H]1C[C@H]2CC[C@@H]1O2 |  | mouse, disseminated MM1.S model | oral, 10 mg/kg, 5 consecutive days weekly | relative to: vehicle | median survival prolongation | 13 days
CCCC[C@@H](C(=O)N[C@@H](CC(=O)O)C(=O)N[C@@H](Cc1ccccc1)C(N)=O)N(C)C(=O)[C@@H](Cc1c[nH]c2ccccc12)NC(=O)CNC(=O)[C@@H](Cc1ccccc1)NC(=O)[C@@H](N)Cc1ccc(O)cc1 |  | male Sprague Dawley rats | RVM injection, 60 ng, added: CCK-8 sulfate 30 ng RVM -10 min before |  | paw withdrawal latency | 21.8 s
N=C(N)NCCC[C@H](NC(=O)[C@@H]1CCCN1C(=O)[C@@H]1CSSC[C@H](N)C(=O)N[C@@H](Cc2ccc(O)cc2)C(=O)N[C@@H](Cc2ccccc2)C(=O)N[C@@H](CCC(N)=O)C(=O)N[C@@H](CC(N)=O)C(=O)N1)C(=O)NCC(N)=O |  | male Sprague-Dawley rat, conscious | intra-arterial, 100 ng/kg | relative to: pre-injection baseline | peak heart rate decrease | 99 beats/min
CC(C)C[C@@H](NC(=O)[C@H]1CCCN1C(=O)[C@H]1CCCN1C(=O)[C@@H](CCCNC(=N)N)NC(=O)[C@@H](CCCNC(=N)N)NC(=O)[C@@H](CCCNC(=N)N)NC(=O)[C@@H](CCC(N)=O)NC(=O)[C@@H](CCCNC(=N)N)NC(=O)[C@@H](CCCNC(=N)N)NC(=O)[C@@H](CCCCN)NC(=O)[C@@H](CCCCN)NC(=O)[C@@H](CCCNC(=N)N)NC(=O)CNC(=O)[C@H](N)Cc1ccc(O)cc1)C(=O)N[C@H](CCCNC(=N)N)C(=O)N[C@H](CCCCN)C(=O)N[C@H](CCCCN)C(=O)N[C@H](CCCCN)C(=O)N[C@H](CCCCN)C(=O)N[C@H](CCCCN)C(=O)N[C@H](Cc1c[nH]cn1)C(N)=O | telemetry | mouse, awake | intraperitoneal, dose not given |  | mean arterial pressure increase | ≤ 18 mmHg
O=C(O)/C=C/c1cc(O)cc(O)c1 | DPPH radical scavenging |  | 250 µg/mL |  | inhibition | 65.6 ± 1.84%
CC(C)C[C@@H]1NC(=O)[C@H](C(C)C)NC(=O)[C@H](CO)NC(=O)CNC(=O)CNC(=O)[C@H](CCCNC(=N)N)NC(=O)[C@@H]2CCCN2C(=O)[C@@H](NC(=O)CC[C@H](NC(=O)c2ccc(N(C)Cc3cnc4nc(N)nc(N)c4n3)cc2)C(=O)O)C(C)(C)SSC[C@@H](C(=O)O)NC(=O)CNC(=O)[C@H]([C@@H](C)O)NC(=O)[C@H](C(C)C)NC1=O |  | rat adjuvant arthritis | iv, 5 mg/kg once daily, day 14 | relative to: arthritis vehicle | paw weight reduction | 73%
CN(C)CCN(Cc1ccccc1)C(=O)c1cc(-c2ccc(F)cc2)n2nc(C(C)(C)C)cc2n1 | Barnes maze probe trial | Tg6799 mouse | dose not given | relative to: untreated | distance travelled | no effect
CC[C@H](C)[C@H](NC(=O)[C@@H](NC(=O)[C@H](CC(=O)O)NC(C)=O)[C@@H](C)O)C(=O)N[C@@H](CCCNC(=N)N)C(=O)N[C@@H](CC(C)C)C(=O)N[C@@H](CC(C)C)C(=O)N[C@@H](Cc1ccccc1)C(=O)N[C@@H](CCC(N)=O)C(=O)N[C@@H](CC(C)C)C(=O)N[C@@H](CCSC)C(=O)N[C@@H](CCCNC(=N)N)C(=O)N1CCC[C@H]1C(=O)N1CCC[C@H]1C(=O)N[C@@H](CC(N)=O)C(=O)N[C@@H](CCSC)C(=O)N[C@H](C(=O)N1CCC[C@H]1C(=O)N[C@@H](C)C(=O)N[C@H](C(=O)N[C@@H](CC(N)=O)C(=O)N[C@@H](C)C(N)=O)C(C)C)[C@@H](C)O | measured: HA-52 tetramer | antigen-experienced tetramer+ CD4 T cells, healthy adults, HLA-DRB1*0101 | dose not given |  | α4β7+ CCR9− cells | 31.2%
CC[C@H](C)[C@H](NC(=O)[C@H](Cc1c[nH]c2ccccc12)NC(=O)[C@H](CCCCN)NC(=O)[C@@H](NC(=O)[C@H](CC(C)C)NC(=O)[C@H](CCCCN)NC(=O)CNC(=O)[C@@H](NC(=O)[C@@H](NC(=O)[C@H](CO)NC(=O)[C@@H](NC(=O)[C@@H](NC(=O)[C@H](CCCCN)NC(=O)[C@H](CCC(N)=O)NC(=O)[C@H](C)NC(=O)[C@H](CCSC)NC=O)[C@@H](C)CC)[C@@H](C)CC)[C@@H](C)O)[C@@H](C)CC)C(C)C)C(=O)N[C@H](C(=O)N[C@@H](CCCCN)C(=O)N[C@H](C(=O)N[C@H](C(=O)N[C@@H](CC(N)=O)C(=O)N[C@@H](CCCCN)C(=O)N[C@@H](Cc1ccccc1)C(=O)N[C@H](C(=O)N[C@@H](CCCCN)C(=O)N[C@@H](CCCCN)C(=O)O)[C@@H](C)O)C(C)C)[C@@H](C)O)[C@@H](C)CC (racemic) | carboxyfluorescein release, stopped-flow fluorescence | POPC vesicles 50 µM | up to 1 µM, pH 7.5, peptide/lipid 1:50 |  | time constant | 4.9 s
CC[C@H](C)[C@H](NC(=O)[C@H](CCCNC(=N)N)NC(=O)[C@H](CCC(N)=O)NC(=O)[C@H](CC(=O)O)NC(=O)[C@H](CC(C)C)NC(=O)[C@H](CC(C)C)NC(=O)[C@H](CC(N)=O)NC(=O)[C@H](Cc1ccccc1)NC(=O)[C@H](CC(=O)O)NC(=O)[C@@H](NC(=O)[C@@H](NC(=O)[C@H](CC(N)=O)NC(=O)CNC(=O)[C@H](CO)NC(C)=O)C(C)C)[C@@H](C)CC)C(=O)N[C@H](C(=O)N[C@@H](Cc1c[nH]c2ccccc12)C(=O)N[C@@H](CCC(N)=O)C(=O)N[C@@H](CC(N)=O)C(=O)N[C@@H](Cc1c[nH]c2ccccc12)C(=O)N[C@@H](Cc1ccc(O)cc1)C(=O)N[C@@H](C)C(N)=O)[C@@H](C)CC | measured: HA-02 tetramer | antigen-experienced tetramer+ CD4 T cells, healthy adults, HLA-DRB1*0101 | dose not given |  | α4β7+ CCR9+ cells | 14.3%
COc1ccc2c(c1)/C(=N\Nc1nnc3n1N=C(c1ccccc1)CS3)C(=O)N2 | angiogenesis | hen egg chorioallantoic membrane | 40 µM | relative to: DMSO vehicle | number of blood vessels | decreased
Cc1cc(Nc2nc(C[C@@]3(C(=O)O)CCN(Cc4cccc(Cl)c4F)[C@H](C)C3)cc(C)c2F)[nH]n1 |  | mice, NCI-H69 xenograft | oral, 10 mg/kg once daily |  | tumour growth inhibition | 89%
CC[C@@]1(O)C(=O)OCc2c1cc1n(c2=O)Cc2cc3cc(OC(=O)CCCC(=O)NCC(=O)N[C@@H](Cc4ccccc4)C(=O)N[C@@H](Cc4ccccc4)C(=O)N[C@@H](Cc4ccc(OP(=O)(O)O)cc4)C(=O)NCCSSCCNC(=O)CCC(=O)N[C@@H](CCC(=O)O)C(=O)N[C@@H](CCCNC(=N)N)C(=O)NCC(=O)N[C@@H](CC(=O)O)C(=O)O)ccc3nc2-1 |  | nude mice, HepG2 xenograft | dose not given, day 21, initial 300 mm^3 | relative to: saline over compound | tumour volume ratio | ~9 fold
CC[C@H](C)[C@H](NC(=O)[C@H](Cc1c[nH]c2ccccc12)NC(=O)[C@H](CCCNC(=N)N)NC(=O)[C@H](CCCCN)NC(=O)[C@H](CC(C)C)NC(=O)[C@H](CC(=O)O)NC(=O)[C@H](Cc1ccccc1)NC(=O)[C@H](C)NC(=O)[C@H](Cc1ccc(O)cc1)NC(=O)[C@H](CC(N)=O)NC(=O)[C@H](Cc1ccc(O)cc1)NC(=O)[C@H](CCCNC(=N)N)NC(=O)[C@H](Cc1ccc(O)cc1)NC(=O)[C@H](Cc1ccc(O)cc1)NC(=O)[C@@H](NC(=O)[C@H](CC(C)C)NC(=O)[C@H](C)NC(=O)[C@H](CC(N)=O)NC(=O)[C@H](Cc1ccc(O)cc1)NC(C)=O)[C@@H](C)CC)C(=O)N[C@@H](Cc1ccc(O)cc1)C(=O)N[C@@H](CC(C)C)C(N)=O | measured: HA-51 tetramer | antigen-experienced tetramer+ CD4 T cells, healthy adults, HLA-DRB1*0101 | dose not given |  | α4β7+ CCR9− cells | 45.8%
O=c1cc(-c2ccc(O)cc2)oc2c([C@@H]3OC[C@H](O)[C@H](O)[C@H]3O)c(O)c([C@@H]3O[C@H](CO)[C@@H](O)[C@H](O)[C@H]3O)c(O)c12 | ELISA, measured: TNF-α, IL-6, IL-1β | BALB/c mice, LPS acute lung injury | oral gavage, 10 and 20 mg/kg, 8 h, added: LPS 2 mg/kg intranasal |  | serum cytokine levels | decreased
CCC(NC(=O)C(CC(C)C)NC(=O)CCc1ccccc1)C(=O)C(=O)NCc1cc(F)cc(OC)c1 (stereo not shown) | TUNEL | mouse traumatic brain injury model (controlled cortical impact) | intraperitoneal, 0.1 or 1.0 mg/kg |  | cell death | no effect
O=c1c(O)c(-c2cc(O)ccc2O)oc2cc(O)cc(O)c12 | DPPH radical scavenging |  | 500 µg/mL |  | inhibition | 78.5 ± 1.17%
CCOC(=O)Nc1ccc2c(c1)CN1C(=S)N(c3ccc(C#N)c(C(F)(F)F)c3)C(=O)C1C2 (stereo not shown) |  | mouse, 22Rv1 orthotopic xenograft | intravenous, 25 mg/kg/day | relative to: vehicle | increase in apoptosis rate | 5 fold
CC[C@H](C)[C@H](NC(=O)CNC(=O)[C@H](C)NC(=O)[C@@H]1CCCN1C(=O)CNC(=O)[C@H](C)NC(=O)[C@H](CCC(=O)O)NC(=O)[C@H](C)NC(=O)[C@H](CC(=O)O)NC(=O)[C@H](C)NC(=O)[C@H](CCC(=O)O)NC(=O)[C@H](C)NC(=O)[C@H](CCC(=O)O)NC(=O)[C@@H]1CCCN1C(=O)[C@H](CCC(=O)O)NC(=O)CNC(C)=O)C(=O)NCC(=O)N[C@@H](C)C(=O)N[C@H](C(=O)N[C@@H](CC(C)C)C(=O)N[C@@H](CCCCN)C(=O)N[C@H](C(=O)N[C@@H](CC(C)C)C(=O)N[C@H](C(=O)N[C@H](C(=O)NCC(=O)N[C@@H](CC(C)C)C(=O)N1CCC[C@H]1C(=O)N[C@@H](C)C(=O)N[C@@H](CC(C)C)C(=O)N[C@H](C(=O)N[C@@H](CO)C(=O)N[C@@H](Cc1c[nH]c2ccccc12)C(=O)N[C@H](C(=O)N[C@@H](CCCCN)C(=O)N[C@@H](CCCNC(=N)N)C(=O)N[C@@H](CCCCN)C(=O)N[C@@H](CCCNC(=N)N)C(=O)N[C@@H](CCC(N)=O)C(=O)N[C@@H](CCC(N)=O)C(N)=O)[C@@H](C)CC)[C@@H](C)CC)[C@@H](C)O)[C@@H](C)O)C(C)C)C(C)C |  | MCF7 xenograft, nude mouse | intratumoral, 250 nmol, 96 h | relative to: tumour area | necrotic area | ~60%
Cc1ccc(/C=C/C(=O)O)cc1-c1cc2c(cc1C)C(C)(C)CCC2(C)C | RNA sequencing, measured: Lyve1 | rat, brain | dose not given, 24 h | relative to: vehicle | log2 fold change | -0.13
CC(COC(=O)c1ccccc1)OC(=O)C(N)Cc1ccccc1 (mixture of isomers) |  | Caco-2 cell homogenate | prodrug to BA-PG step |  | hydrolysis rate constant | 0.192 min⁻¹
CC(C)C[C@H]1NC(=O)[C@H](NC(=O)CN)CSSC[C@H]2NC(=O)[C@H]3CSSC[C@H](C(=O)N[C@H](CC(N)=O)C(=O)N[C@H](Cc4ccccc4)C(=O)N[C@H](CO)C(=O)N[C@H](Cc4ccccc4)C(N)=O)NC(=O)[C@@H](CC(C)C)NC(=O)[C@@H](CCCCN)NC(=O)[C@@H](Cc4ccccc4)NC(=O)[C@@H](CC(C)C)NC(=O)[C@@H](CCCCN)NC(=O)[C@@H](CO)NC(=O)[C@@H](CSSC[C@@H](NC(=O)[C@@H](CCCCN)NC(=O)[C@@H](Cc4c[nH]c5ccccc45)NC(=O)[C@@H](Cc4c[nH]c5ccccc45)NC(=O)[C@@H](Cc4ccccc4)NC(=O)[C@@H](CCC(=O)O)NC1=O)C(=O)N[C@H](CC(N)=O)C(=O)N1CCC[C@@H]1C(=O)N[C@H](CC(N)=O)C(=O)N[C@H](CC(=O)O)C(=O)N[C@H](CC(=O)O)C(=O)N[C@H](CCCCN)C(=O)N3)NC(=O)[C@@H](CCCCN)NC(=O)[C@@H](CC(C)C)NC(=O)[C@@H](CCCCN)NC(=O)[C@H]1CCCN1C(=O)[C@@H](CCCNC(=N)N)NC2=O |  | D2.mdx mouse | subcutaneous, 1 mg/kg, six weeks, 20 eccentric contractions |  | protection from contraction injury | ~30%

Repeated from above:
SMILES | test | system | conditions | scale | quantity | result
COc1ccc2c(c1)/C(=N\Nc1nnc3n1N=C(c1ccccc1)CS3)C(=O)N2 | angiogenesis | hen egg chorioallantoic membrane | 40 µM | relative to: DMSO vehicle | number of blood vessels | decreased
